Assay results from different studies.
Each numbered part is a random draw from the data of one study; scales do not carry over between parts. Positions count from the first letter of the parent shown.

Series 1
Target: Max-binding protein MNT, bHLH-zipper, MAX partner unstated (MNT, Homo sapiens, UniProt Q99583, residues 220-300)
Method: protein-binding microarray
Form: double-stranded DNA, one strand shown
Matrix: in vitro
Tested at: not given
Setting: k-mer, scored over probes, only values ≥0.25
Reading: higher = stronger binding
Construct (chain): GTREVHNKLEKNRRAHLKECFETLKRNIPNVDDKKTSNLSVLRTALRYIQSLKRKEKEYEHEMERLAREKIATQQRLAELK
With `ACGCGTTA` the E-score was 0.301.
With `ACGAGGAA` the E-score was 0.333.
`CCGCACCA` gave an E-score of 0.262.
`CGTGGCAG` has an E-score of 0.335.
The E-score of `ATGCACAT` is reported as 0.365.
With `CGTGATTA` the E-score was 0.296.
`GGTAGCAC` has an E-score of 0.272.
For `CATGTTGC`, the E-score was 0.365.
`CCTCATGA` gave an E-score of 0.279.
With `AGGCACGA` the E-score was 0.268.
`AACGTGAC` gave an E-score of 0.419.
The E-score of `ACATGACA` is reported as 0.33.
With `CGCATGAA` the E-score was 0.28.
For `ACGGGGCG`, the E-score was 0.353.
The E-score of `CACATGCA` is reported as 0.443.
`AACGTGAG` gave an E-score of 0.321.
`GGCGGGCA` has an E-score of 0.251.
`CTCCCACC` has an E-score of 0.26.

Series 2
Target: Fragile X messenger ribonucleoprotein 1, C-terminal low-complexity region (Fmr1, Mus musculus, UniProt P35922)
Method: RNA Bind-n-Seq
Form: RNA
Matrix: in vitro
Tested at: 200 nM
Setting: whole 134-nt RNA, ends assumed
Added: 150 mM KCl
Baseline: input library
Reading: higher = stronger binding
`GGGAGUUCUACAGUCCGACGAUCAAGUCCUGUGCUACACAUCGUAUGUACCGAAUCGGGUUUGGGUGGGUUUUUUUGGGAAAGUAUUAUGUUACGCCGUUCGGAUCUGCACUUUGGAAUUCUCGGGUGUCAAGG` gave a log2 enrichment of 1.08.
For `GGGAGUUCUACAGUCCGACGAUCACCAUGCAGGUGGGCAUCUUUGGGAAGUGGGGCACGGGGGGGAUAGGGAGGGGGGUAACACUUUGGGAACAGGUGGUCCCAGGUCGUUUCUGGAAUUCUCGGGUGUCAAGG`, the log2 enrichment was 0.747.
The log2 enrichment of `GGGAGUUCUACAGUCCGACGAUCCUGUGCUACACAUCGUAUGUACCGAAUCGGGCCCCCCCGGGGCCCCCCCGGCCCCCCCGGGAAAGUAUUAUGUUACGCCGUUCGGAUCUGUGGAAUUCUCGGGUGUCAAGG` is reported as -1.11.
`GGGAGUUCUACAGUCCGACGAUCCAAGUCCUGUGCUACACAUCGUAUGUACCGAAUCGGAAAAAGGAAAGGAAAAAGGAAAGUAUUAUGUUACGCCGUUCGGAUCUGCACUUCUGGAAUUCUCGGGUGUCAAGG` has a log2 enrichment of -0.699.
The log2 enrichment of `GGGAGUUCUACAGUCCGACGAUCUGGCCCUGGUGGCAUGCGGGGAGGAAGAGGUGGCCUCAUGGAACGUGGUGGUCCCGGUGGAAUGUUCAGAGGUGGCCGUGGUGGAGACAGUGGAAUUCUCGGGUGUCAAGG` is reported as 0.113.
The log2 enrichment of `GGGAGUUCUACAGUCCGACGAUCGUCCUGUGCUACACAUCGUAUGUACCGAAUCGGGUUUUUGGGGUUUUUGGGUUUUUGGGAAAGUAUUAUGUUACGCCGUUCGGAUCUGCAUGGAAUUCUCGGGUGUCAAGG` is reported as 0.308.
`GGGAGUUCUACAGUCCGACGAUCAAGUCCUGUGCUACACAUCGUAUGUACCGAAUCGGGGUUUGGGGUUUGGGGUUUGGGAAAGUAUUAUGUUACGCCGUUCGGAUCUGCACUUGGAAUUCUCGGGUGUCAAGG` has a log2 enrichment of 0.693.
For `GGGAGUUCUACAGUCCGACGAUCUCCUCAAGUCCUGUGCUACACAUCGUAUGUACCGAAUCGGGAGGGAGGAGGAAAGUAUUAUGUUACGCCGUUCGGAUCUGCACUUCCAGCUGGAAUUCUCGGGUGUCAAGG`, the log2 enrichment was -0.31.
With `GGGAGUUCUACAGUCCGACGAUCAAGUCCUGUGCUACACAUCGUAUGUACCGAAUCGGGAAAAGGAAAAGGGGAAAAGGAAAGUAUUAUGUUACGCCGUUCGGAUCUGCACUUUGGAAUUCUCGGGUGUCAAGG` the log2 enrichment was -0.44.
`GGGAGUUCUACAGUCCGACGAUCAAGUCCUGUGCUACACAUCGUAUGUACCGAAUCGGGUUUGGGAGGGAAAAAAAGGGAAAGUAUUAUGUUACGCCGUUCGGAUCUGCACUUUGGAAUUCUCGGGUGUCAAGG` gave a log2 enrichment of 0.354.

Series 3
Target: BATF2, bZIP domain (human)
Method: DHFR protein complementation
Matrix: yeast
Setting: single substitutions, most at no-binding floor
Baseline: wild-type JUN-FOS pair
Reading: higher = stronger binding
Starting sequence: JUN, bZIP domain (human); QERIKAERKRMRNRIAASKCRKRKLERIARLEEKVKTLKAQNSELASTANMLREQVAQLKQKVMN; partner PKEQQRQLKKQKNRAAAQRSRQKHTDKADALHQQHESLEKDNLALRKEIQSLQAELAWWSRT
`A57W` gave a binding fitness of -0.488 natural log.
The binding fitness of `E44C` is reported as -0.618 natural log.
For `S43H`, the binding fitness was -0.277 natural log.
For `S43G`, the binding fitness was -0.331 natural log.
With `V35K` the binding fitness was -1.48 natural log.
For `A29T`, the binding fitness was -0.366 natural log.
With `E44P` the binding fitness was -1.46 natural log.
With `E44T` the binding fitness was -0.537 natural log.
With `A29F` the binding fitness was -0.6 natural log.
`S47N` gave a binding fitness of -0.175 natural log.
With `I28C` the binding fitness was -0.561 natural log.
The binding fitness of `E33K` is reported as -0.601 natural log.
For `L45S`, the binding fitness was -1.41 natural log.
`V35G` has a binding fitness of -1.32 natural log.
`L45W` gave a binding fitness of -1.3 natural log.
For `E44F`, the binding fitness was -0.598 natural log.
With `R53S` the binding fitness was -1.06 natural log.

Series 4
Target: Histone acetyltransferase KAT6A, winged helix 2, GST fusion (KAT6A, Homo sapiens, UniProt Q92794, residues 85-181)
Method: protein binding microarray
Form: double-stranded DNA, one strand shown
Matrix: in vitro
Tested at: not given
Setting: 8-mer, flanks averaged, mean of 2 arrays, mostly near background
Baseline: not given
Reading: higher = stronger binding
Residues (chain): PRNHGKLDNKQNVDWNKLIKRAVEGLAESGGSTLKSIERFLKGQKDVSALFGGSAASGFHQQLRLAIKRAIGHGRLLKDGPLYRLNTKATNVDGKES
The E-score of `GAGTGCCC` is reported as 0.088.
For `GACTGCGC`, the E-score was 0.0497.
`CGAGCGTC` has an E-score of -0.0161.
`AACAAGCC` has an E-score of -0.113.
`GAGTGCAC` has an E-score of -0.000295.
`CCGATACA` has an E-score of -0.0695.
The E-score of `ACATCGGT` is reported as -0.148.
`ACGACACC` gave an E-score of -0.0723.
For `AAACGCAA`, the E-score was 0.0713.
The E-score of `CAATCCTG` is reported as 0.0594.
`TACTCACA` has an E-score of -0.0991.
For `AATGCACT`, the E-score was -0.0216.
`GGTGAACC` has an E-score of 0.188.
For `CACTGCGG`, the E-score was 0.219.
The E-score of `TCGAGGAA` is reported as -0.0706.
`CTGCCGAA` has an E-score of 0.144.
The E-score of `GCTTTTAA` is reported as -0.00822.
For `AAGGACGA`, the E-score was 0.0272.
The E-score of `CGCGTGCC` is reported as 0.0703.
With `ATTGCGGC` the E-score was 0.0168.
For `TAAAATTA`, the E-score was 0.169.
The E-score of `CTTGTATC` is reported as -0.0516.
With `ACCGACCA` the E-score was -0.0122.
`AGACCAAA` gave an E-score of 0.00326.
The E-score of `AGTATAAA` is reported as 0.195.

Series 5
Target: Centromere-binding protein 1, full length, N-terminal tag (CBF1, Saccharomyces cerevisiae, UniProt P17106, residues 1-351)
Chain of UniProt P17106 (whole entry, looked up): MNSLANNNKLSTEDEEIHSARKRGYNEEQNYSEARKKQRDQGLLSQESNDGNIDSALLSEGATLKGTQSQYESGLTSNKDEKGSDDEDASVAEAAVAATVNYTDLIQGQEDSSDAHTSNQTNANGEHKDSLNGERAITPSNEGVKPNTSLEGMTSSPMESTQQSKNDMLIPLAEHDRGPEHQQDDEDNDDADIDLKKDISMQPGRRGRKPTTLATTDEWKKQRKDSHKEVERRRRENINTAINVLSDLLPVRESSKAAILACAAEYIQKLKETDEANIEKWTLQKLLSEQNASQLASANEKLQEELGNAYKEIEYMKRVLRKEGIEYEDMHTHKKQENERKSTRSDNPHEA
Method: protein-binding microarray
Form: double-stranded DNA, one strand shown
Matrix: in vitro
Tested at: 0.8 µM
Setting: whole 60-bp probe, no competitor
Reading: higher = stronger binding
`CTAACAAAAAGACCTCACGTATTTTATGAAATTTTCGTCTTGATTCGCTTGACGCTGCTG` has a fluorescence intensity of 519 a.u.
With `GAAATATATGATCGTGATTATACACCGTTATTTTAGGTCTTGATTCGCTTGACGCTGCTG` the fluorescence intensity was 605 a.u.
`CTACGGAAAAACCTCCACGTGTTAGGTTATTCCTTCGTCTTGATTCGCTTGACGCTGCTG` has a fluorescence intensity of 6950 a.u.
`GAAACTACGATGTTGTACGTGATCGAGAAAATTTAGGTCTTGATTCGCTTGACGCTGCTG` gave a fluorescence intensity of 814 a.u.
`CCTAACTACTATATTCTCGTGTGATAGCTTCGTACAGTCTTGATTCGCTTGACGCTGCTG` has a fluorescence intensity of 533 a.u.
With `GAATTCTTTGAGATACACGTTACCAAAAGAATATAGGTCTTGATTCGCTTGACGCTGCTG` the fluorescence intensity was 877 a.u.
With `CTATAGCAAATGTACAACGTGTGAAAGTAAAGATTCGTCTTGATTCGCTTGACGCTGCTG` the fluorescence intensity was 581 a.u.
The fluorescence intensity of `CTACTTCCTGAAACCCACGCGTCACTGCTATACTTCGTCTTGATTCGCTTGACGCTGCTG` is reported as 519 a.u.
The fluorescence intensity of `GAATTATATTGCAAGCATCAGATTAATCATTCATAGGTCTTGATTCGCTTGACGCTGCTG` is reported as 518 a.u.
For `CTACAGAAGACGTGCCGCGTGATTCCAAAGGTGTTCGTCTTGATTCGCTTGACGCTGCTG`, the fluorescence intensity was 1040 a.u.
For `CCTAACTACTATACAATGGTGACATAGCTTCGTACAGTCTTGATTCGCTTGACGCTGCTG`, the fluorescence intensity was 493 a.u.
The fluorescence intensity of `GAATTTGCCGTTGGCCTGATGATCTGACCATTCTAGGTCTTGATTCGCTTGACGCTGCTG` is reported as 519 a.u.
For `GAATAAACCTCCCACCACCTGATAATCTGTATGTAGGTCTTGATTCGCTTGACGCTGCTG`, the fluorescence intensity was 653 a.u.
The fluorescence intensity of `TGTACGAAGCTATTGCAGGTGTGTATAGTAGTTAGGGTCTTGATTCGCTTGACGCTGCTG` is reported as 560 a.u.
`CTATCCTATTCTTATCACGTTATTGTTTACTTATTCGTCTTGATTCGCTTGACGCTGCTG` has a fluorescence intensity of 2190 a.u.
For `GAAAAGCATCTACATCACGAATATACGGGATATTAGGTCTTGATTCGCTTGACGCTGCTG`, the fluorescence intensity was 544 a.u.
`CTAGGATATTCACCACACCTGATTGGGAAGACTTTCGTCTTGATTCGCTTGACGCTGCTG` has a fluorescence intensity of 691 a.u.
For `GAACATTTGCTGTCTGCTGATGTCAATTAATTGTAGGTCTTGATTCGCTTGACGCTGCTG`, the fluorescence intensity was 946 a.u.
`GAACAATAGCTACGTGATATAATCTAAATAATTTAGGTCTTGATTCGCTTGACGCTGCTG` gave a fluorescence intensity of 621 a.u.
For `CTAGAACCCATACCTCACGTTTGAAATTGACACTTCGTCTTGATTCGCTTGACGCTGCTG`, the fluorescence intensity was 541 a.u.
For `CCTAACTACTATAAGTGCGTGCGATAGCTTCGTACAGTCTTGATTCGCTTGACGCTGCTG`, the fluorescence intensity was 516 a.u.
The fluorescence intensity of `CTACCACCAAATGCTTAGGTGACTCCATTGTAATTCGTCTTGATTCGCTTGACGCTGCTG` is reported as 564 a.u.
The fluorescence intensity of `TGTACGAAGCTATGTGACTTCTGTATAGTAGTTAGGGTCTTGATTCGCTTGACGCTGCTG` is reported as 560 a.u.
The fluorescence intensity of `GAAACAAGTAGTGTCTTCATGACGGATTCATAGTAGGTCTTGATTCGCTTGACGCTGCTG` is reported as 511 a.u.

Repeated from above (series 5):
For `CTACAGAAGACGTGCCGCGTGATTCCAAAGGTGTTCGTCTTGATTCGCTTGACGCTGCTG`, the fluorescence intensity was 1040 a.u.
The fluorescence intensity of `CTACCACCAAATGCTTAGGTGACTCCATTGTAATTCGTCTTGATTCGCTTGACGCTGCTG` is reported as 564 a.u.
With `GAAATATATGATCGTGATTATACACCGTTATTTTAGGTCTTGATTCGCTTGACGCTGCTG` the fluorescence intensity was 605 a.u.
`CTAGGATATTCACCACACCTGATTGGGAAGACTTTCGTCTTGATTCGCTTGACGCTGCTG` has a fluorescence intensity of 691 a.u.
For `CCTAACTACTATAAGTGCGTGCGATAGCTTCGTACAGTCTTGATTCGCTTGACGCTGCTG`, the fluorescence intensity was 516 a.u.
`GAACAATAGCTACGTGATATAATCTAAATAATTTAGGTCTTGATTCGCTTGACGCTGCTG` gave a fluorescence intensity of 621 a.u.
For `CCTAACTACTATACAATGGTGACATAGCTTCGTACAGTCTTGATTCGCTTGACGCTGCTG`, the fluorescence intensity was 493 a.u.
